Results gathered from unrelated publications.
± marks the error that the study gave.
Chain of UniProt P06221 (whole entry, looked up): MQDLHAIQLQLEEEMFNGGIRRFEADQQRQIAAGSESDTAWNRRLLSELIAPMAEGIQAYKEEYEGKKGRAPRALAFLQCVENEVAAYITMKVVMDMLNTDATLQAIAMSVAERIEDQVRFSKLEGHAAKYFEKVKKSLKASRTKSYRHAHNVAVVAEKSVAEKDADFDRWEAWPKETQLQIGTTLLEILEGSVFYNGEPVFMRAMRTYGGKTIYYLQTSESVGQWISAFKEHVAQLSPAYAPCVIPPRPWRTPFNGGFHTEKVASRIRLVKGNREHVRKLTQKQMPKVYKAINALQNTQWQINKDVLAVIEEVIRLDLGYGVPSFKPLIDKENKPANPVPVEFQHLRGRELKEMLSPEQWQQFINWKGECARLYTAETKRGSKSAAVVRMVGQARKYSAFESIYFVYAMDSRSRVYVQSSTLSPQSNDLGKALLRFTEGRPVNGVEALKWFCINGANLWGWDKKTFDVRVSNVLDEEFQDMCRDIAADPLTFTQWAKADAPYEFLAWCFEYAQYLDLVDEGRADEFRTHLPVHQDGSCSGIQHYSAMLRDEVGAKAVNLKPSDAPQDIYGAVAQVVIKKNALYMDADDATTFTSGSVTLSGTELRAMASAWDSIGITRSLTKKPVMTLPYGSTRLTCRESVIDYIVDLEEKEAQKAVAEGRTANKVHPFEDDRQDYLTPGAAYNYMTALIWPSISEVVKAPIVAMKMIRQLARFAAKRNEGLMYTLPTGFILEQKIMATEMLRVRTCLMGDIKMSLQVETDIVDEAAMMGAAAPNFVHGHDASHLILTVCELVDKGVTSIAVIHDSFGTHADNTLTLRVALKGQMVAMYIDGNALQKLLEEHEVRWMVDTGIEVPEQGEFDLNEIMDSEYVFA
Chain of UniProt Q9HAW8 (whole entry, looked up): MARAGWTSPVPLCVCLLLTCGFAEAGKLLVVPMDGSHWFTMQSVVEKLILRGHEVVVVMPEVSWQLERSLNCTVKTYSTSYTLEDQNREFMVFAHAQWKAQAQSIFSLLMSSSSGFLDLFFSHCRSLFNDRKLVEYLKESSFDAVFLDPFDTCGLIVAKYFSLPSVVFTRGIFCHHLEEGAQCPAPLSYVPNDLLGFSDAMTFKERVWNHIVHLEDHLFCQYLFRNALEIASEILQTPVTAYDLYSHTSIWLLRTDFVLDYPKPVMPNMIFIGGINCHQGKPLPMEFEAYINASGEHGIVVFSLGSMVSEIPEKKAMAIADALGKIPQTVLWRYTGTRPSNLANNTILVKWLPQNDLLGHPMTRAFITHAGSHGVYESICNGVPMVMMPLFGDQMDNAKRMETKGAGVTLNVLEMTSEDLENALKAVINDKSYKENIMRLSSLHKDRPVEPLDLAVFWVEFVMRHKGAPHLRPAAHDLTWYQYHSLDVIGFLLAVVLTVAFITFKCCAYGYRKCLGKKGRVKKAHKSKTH
Chain of UniProt P17931 (whole entry, unmodified, looked up): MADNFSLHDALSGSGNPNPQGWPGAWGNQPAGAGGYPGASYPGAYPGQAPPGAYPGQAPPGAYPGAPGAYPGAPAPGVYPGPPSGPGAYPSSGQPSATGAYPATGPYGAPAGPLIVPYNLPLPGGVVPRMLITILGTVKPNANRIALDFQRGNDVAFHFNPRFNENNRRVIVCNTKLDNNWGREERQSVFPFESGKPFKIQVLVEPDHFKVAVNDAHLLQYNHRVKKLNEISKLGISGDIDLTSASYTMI
Chain of UniProt Q9BQB4 (whole entry, looked up): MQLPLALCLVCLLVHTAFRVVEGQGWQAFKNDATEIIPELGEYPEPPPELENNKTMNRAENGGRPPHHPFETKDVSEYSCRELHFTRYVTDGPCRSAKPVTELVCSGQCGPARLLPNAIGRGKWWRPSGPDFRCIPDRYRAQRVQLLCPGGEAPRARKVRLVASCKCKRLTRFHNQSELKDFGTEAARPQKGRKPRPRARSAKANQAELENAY
Chain of UniProt P07437 (whole entry, looked up): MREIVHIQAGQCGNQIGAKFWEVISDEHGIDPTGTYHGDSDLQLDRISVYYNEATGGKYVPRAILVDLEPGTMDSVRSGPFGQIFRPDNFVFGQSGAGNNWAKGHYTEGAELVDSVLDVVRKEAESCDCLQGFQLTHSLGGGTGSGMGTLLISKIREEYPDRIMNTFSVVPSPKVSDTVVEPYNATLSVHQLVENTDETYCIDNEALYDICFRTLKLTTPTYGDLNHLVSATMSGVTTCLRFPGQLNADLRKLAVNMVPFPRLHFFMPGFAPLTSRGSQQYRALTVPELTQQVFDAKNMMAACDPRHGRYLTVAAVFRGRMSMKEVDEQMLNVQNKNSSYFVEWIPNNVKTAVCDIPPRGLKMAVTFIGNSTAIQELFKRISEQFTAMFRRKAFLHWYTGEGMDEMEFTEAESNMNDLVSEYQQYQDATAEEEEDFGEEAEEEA
Chain of UniProt Q61143 (whole entry, looked up): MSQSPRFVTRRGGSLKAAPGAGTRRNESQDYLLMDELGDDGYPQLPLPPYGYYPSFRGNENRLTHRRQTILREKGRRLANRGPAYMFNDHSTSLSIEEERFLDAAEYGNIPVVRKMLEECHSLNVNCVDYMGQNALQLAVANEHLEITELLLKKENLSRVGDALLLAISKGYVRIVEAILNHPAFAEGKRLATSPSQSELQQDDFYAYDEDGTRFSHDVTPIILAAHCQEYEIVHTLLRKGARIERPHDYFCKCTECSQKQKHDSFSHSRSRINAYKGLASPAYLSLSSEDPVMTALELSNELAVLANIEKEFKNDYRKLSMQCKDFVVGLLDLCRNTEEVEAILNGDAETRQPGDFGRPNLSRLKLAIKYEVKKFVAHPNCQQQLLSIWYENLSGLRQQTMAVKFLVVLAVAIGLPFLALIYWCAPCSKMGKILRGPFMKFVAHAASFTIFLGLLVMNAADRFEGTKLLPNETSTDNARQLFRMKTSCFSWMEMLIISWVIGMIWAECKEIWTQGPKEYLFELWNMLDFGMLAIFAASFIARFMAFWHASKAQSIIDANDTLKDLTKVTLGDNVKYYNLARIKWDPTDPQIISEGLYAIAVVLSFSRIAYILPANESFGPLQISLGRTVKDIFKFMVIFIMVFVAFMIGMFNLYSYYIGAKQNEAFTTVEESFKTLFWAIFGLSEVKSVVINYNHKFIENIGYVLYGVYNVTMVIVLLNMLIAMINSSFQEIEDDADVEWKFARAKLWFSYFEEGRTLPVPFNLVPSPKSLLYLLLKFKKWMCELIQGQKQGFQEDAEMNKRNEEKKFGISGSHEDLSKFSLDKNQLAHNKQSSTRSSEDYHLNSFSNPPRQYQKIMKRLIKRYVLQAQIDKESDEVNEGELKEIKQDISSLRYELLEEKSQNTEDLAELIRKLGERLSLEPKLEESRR
Chain of UniProt Q15303 (whole entry, looked up): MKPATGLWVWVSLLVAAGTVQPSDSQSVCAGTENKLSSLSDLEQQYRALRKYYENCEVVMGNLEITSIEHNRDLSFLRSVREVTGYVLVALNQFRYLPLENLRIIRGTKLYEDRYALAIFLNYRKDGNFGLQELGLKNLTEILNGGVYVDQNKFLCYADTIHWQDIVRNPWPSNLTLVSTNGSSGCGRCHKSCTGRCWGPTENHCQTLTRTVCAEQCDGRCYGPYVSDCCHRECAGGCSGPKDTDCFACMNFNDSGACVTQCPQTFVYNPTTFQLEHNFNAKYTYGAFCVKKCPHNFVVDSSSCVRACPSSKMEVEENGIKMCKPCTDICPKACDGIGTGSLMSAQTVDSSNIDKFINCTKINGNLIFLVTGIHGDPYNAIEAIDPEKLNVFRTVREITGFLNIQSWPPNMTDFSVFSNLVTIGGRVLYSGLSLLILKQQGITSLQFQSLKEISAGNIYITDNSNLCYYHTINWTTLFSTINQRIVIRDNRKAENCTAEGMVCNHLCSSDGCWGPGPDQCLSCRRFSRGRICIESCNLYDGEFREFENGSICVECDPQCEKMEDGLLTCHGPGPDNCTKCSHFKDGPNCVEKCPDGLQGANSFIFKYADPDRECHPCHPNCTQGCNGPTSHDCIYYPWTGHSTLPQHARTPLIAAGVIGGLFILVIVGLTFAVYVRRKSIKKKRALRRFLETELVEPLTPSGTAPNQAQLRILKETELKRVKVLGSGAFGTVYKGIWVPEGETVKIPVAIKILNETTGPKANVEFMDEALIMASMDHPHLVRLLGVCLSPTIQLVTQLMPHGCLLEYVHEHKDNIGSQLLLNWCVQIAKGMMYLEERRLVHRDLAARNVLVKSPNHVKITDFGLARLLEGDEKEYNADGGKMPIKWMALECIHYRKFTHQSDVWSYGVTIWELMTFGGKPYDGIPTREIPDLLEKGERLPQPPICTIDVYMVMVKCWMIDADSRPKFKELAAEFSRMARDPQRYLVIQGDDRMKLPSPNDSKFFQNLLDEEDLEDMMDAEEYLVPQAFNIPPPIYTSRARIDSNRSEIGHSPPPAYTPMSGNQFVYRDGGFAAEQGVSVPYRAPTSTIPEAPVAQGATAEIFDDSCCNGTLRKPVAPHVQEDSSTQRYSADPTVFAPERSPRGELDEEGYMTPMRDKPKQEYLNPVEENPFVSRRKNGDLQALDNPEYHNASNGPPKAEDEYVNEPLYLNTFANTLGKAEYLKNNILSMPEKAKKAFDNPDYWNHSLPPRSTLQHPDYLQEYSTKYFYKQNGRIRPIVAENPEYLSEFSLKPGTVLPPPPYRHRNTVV
Chain of UniProt P14416 (whole entry, looked up): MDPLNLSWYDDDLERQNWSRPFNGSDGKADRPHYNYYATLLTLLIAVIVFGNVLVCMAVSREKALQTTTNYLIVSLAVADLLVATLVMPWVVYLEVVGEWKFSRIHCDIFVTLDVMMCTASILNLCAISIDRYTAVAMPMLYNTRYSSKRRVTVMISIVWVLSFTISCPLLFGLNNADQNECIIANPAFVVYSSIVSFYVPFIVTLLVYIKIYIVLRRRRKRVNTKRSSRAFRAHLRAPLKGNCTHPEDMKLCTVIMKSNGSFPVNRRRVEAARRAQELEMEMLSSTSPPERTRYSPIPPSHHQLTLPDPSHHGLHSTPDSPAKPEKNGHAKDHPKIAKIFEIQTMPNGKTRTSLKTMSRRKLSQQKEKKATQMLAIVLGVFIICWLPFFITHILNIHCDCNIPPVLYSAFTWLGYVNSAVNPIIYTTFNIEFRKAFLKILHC

`O=C(c1ccc(C(=O)N2CCC(N3CCCCC3)CC2)cc1)N1CCC(N2CCCCC2)CC1`: “fluorescence recovery after photobleaching” “no effect” (Lethal(3)malignant brain tumor-like protein 3, MBT domains (Homo sapiens, UniProt Q96JM7); FRAP; human cells; up to 0.1 mM).
`COc1ccc(-c2cc(C(F)(F)F)nc(SCC(=O)N(C)c3ccccc3)n2)cc1` has an Emax of 28 ± 4.3% (GLP1R (Homo sapiens, UniProt P43220); cAMP accumulation, positive allosteric modulator; HEK-293T overexpressing GLP1R; added: EC20 GLP-1).
The enrichment factor of `NC(=O)C1CCNC(=O)C(Cc2ccc([N+](=O)[O-])cc2)NC(=O)C(Cc2ccco2)NC(=O)C(CC2CC2)NC(=O)C=CC(=O)N1` (stereo not shown) is reported as 1.7 (ERBB4 (Homo sapiens, UniProt Q15303); DNA-templated library selection; one selection round).
With `O=C(c1cc2c(s1)CCCCC2)N1CCC(n2c(=O)[nH]c3ccccc32)CC1` the saturating concentration was ~3 µM (Trpc6 (Mus musculus, UniProt Q61143); channel activation, agonist, whole-cell patch clamp; wild type).
For `Cc1cc(CC(=O)N2C[C@H](O)C[C@H]2C(=O)NCc2ccccc2)on1`, “binding enthalpy (ΔH)” read -12.2 ± 0.2 kcal/mol (von Hippel-Lindau disease tumor suppressor, with Elongin B/C (VHL, Homo sapiens, UniProt P40337); isothermal titration calorimetry; concentration not given, 25 °C).
`COc1ccc(CCC(=O)Nc2nc3ccc(Cl)cc3s2)cc1OC` — result for “remaining protein level”: 30 to 35% (Squalene synthase (Homo sapiens, UniProt P37268); western blot, measured: Squalene synthase; HeLa; concentration not given).
For `Cc1ncsc1-c1ccc(CNC(=O)[C@@H]2C[C@@H](O)CN2C(=O)[C@@H](NC(=O)COCC(C)(COCCOCCOCCNC(=O)C[C@@H]2N=C(c3ccc(Cl)cc3)c3c(sc(C)c3C)-n3c(C)nnc32)COCCOCCOCCNC(=O)C[C@@H]2N=C(c3ccc(Cl)cc3)c3c(sc(C)c3C)-n3c(C)nnc32)C(C)(C)C)cc1`, “degradation potency ratio” read 80 (BRD2 (Homo sapiens, UniProt P25440); HEK293 HiBiT-BRD2 knock-in; relative to: compound over ARV-771).
For `COC(=O)CC1N=C(c2ccc(Cl)cc2)c2c(sc(C(=O)NCCCCCNc3cccc4c3C(=O)N(C3CCC(=O)NC3=O)C4=O)c2C)-n2c(C)nnc21` (stereo not shown), degradation read “inactive” (BRD3 (Homo sapiens, UniProt Q15059); degrader, western blot; HEK-293T; 5 h).
With `CCS(=O)(=O)Oc1cc(/C=N/NC(=O)c2nc3ccccc3s2)ccc1OC` the protein level was 210 pg/mL (TUBB/Tubulin alpha-1B chain (Homo sapiens, UniProt P07437+P68363); ELISA; MCF7; concentration not given, 24 h).
For `CCCCn1c(-c2ccc3nn(CCC)c(Cc4ccc(-c5ccccc5-c5nnn[nH]5)cc4)c3c2)nc2ccccc21`, the Schild slope was 1.9 (GPR132 (Homo sapiens, UniProt Q9UNW8); antagonist; yeast cells; added: SB-583831 agonist).
Under activity, `Cn1ccc2c(N3CCN(CCCCOc4ccc5c(c4)NC(=O)CC5)CC3)cccc21` is recorded as “inactive” (D(2) dopamine receptor, long isoform (DRD2, Homo sapiens, UniProt P14416); Gi1-γ2 dissociation, agonist, BRET; human cells; concentration not given; relative to: quinpirole).
The capping efficiency of `COc1ccc(CNc2nc3c(c(=O)[nH]2)[n+](C)cn3C2OC(COP(=O)(O)OP(=O)([O-])OP(=O)(O)OCC3OC(n4cnc5c(=O)[nH]c(N)nc54)C(O)C3O)C(O)C2O)cc1` (stereo not shown) is reported as 77.3% (DNA-directed RNA polymerase (Enterobacteria phage SP6, UniProt P06221); in vitro transcription, densitometry; short RNA).
`C=Cc1c(C)c2cc3nc(c4c5[nH]c(cc6nc(cc1[nH]2)C(C)=C6CC)c(C)c5C(=O)C4)[C@@H](CCC(=O)NCC(=O)N1CCC[C@H]1C(=O)N[C@@H](CC(C)C)C(=O)NCC(=O)N[C@@H](Cc1ccccc1)C(=O)N[C@@H](CCCNC(=N)N)C(=O)N[C@H](C(=O)NCC(=O)N[C@@H](CCCCNC(=O)CCCN(C)c1ccc(/N=N/c2ccc4nc5ccc(N(CC)CC)cc5[n+](-c5ccccc5)c4c2)cc1)C(N)=O)C(C)C)[C@@H]3C` has a probe activation of 60% (Stromelysin-1 (MMP3, Homo sapiens, UniProt P08254); substrate; concentration not given, 24 h, 37 °C; relative to: proteinase K).
`N#Cc1cnc(Nc2nc3ccccc3o2)nc1-c1cccc(F)c1F` has a maximal response of 2.5 ± 0.3% (Grm5 (Rattus norvegicus, UniProt P31424); calcium mobilization, negative allosteric modulator; added: glutamate EC80; relative to: maximal glutamate response).
The steady-state rate of `Nc1ncnc2c1ncn2[C@@H]1O[C@H](COP(=O)(O)OP(=O)(O)NP(=O)(O)O)[C@@H](O)[C@H]1O` is reported as 0.00022 ± 2.5e-05 s⁻¹ (MAT2A (Homo sapiens, UniProt P31153); AdoMet formation, substrate; enzyme 25 µM, added: methionine).
`O=C(O)[C@H]1O[C@@H](O[C@@H]2c3cc4ccc5cccc6c7ccccc7c(c3C=C[C@H]2O)c4c56)[C@H](O)[C@@H](O)[C@@H]1O` — result for “catalytic efficiency ratio”: 12 to 72 fold (UGT1A10 (Homo sapiens, UniProt Q9HAW8); glucuronidation, substrate; HEK293 homogenate; relative to: UGT1A10 over UGT1A7 and UGT1A8).
For `CN(Cc1cnc2ccccc2n1)C(=O)Nc1nc(-c2ccco2)n[nH]1`, the remaining activity was 43.9% (Single-stranded DNA cytosine deaminase (AICDA, Homo sapiens, UniProt Q9GZX7); deaminase activity, inhibitor, alkaline cleavage; 293T lysate, His-tagged AID; concentration not given, DMSO 100%).
`CC(=O)N[C@@H]1[C@@H](O[C@@H]2O[C@H](C(=O)O)[C@@H](O[C@@H]3O[C@H](COS(=O)(=O)O)[C@@H](OS(=O)(=O)O)[C@H](O[C@@H]4O[C@H](C(=O)O)[C@@H](O[C@@H]5O[C@H](COS(=O)(=O)O)[C@@H](OS(=O)(=O)O)[C@H](O[C@@H]6O[C@H](C(=O)O)[C@@H](OS(=O)(=O)O)[C@H](OS(=O)(=O)O)[C@H]6OS(=O)(=O)O)[C@H]5NC(C)=O)[C@H](OS(=O)(=O)O)[C@H]4OS(=O)(=O)O)[C@H]3NC(C)=O)[C@H](OS(=O)(=O)O)[C@H]2OS(=O)(=O)O)[C@H](OS(=O)(=O)O)[C@@H](COS(=O)(=O)O)O[C@H]1N=[N+]=[N-]`: “binding affinity ratio” 12 fold (Sclerostin (SOST, Homo sapiens, UniProt Q9BQB4); FP competition; relative to: cpd over monovalent azide analogue, higher = stronger binding).
For `COc1cccc(C(=O)N[C@H]2[C@@H](O)[C@@H](CO)O[C@@H](S[C@@H]3O[C@H](CO)[C@H](O)[C@H](NC(=O)c4cccc(OC)c4)[C@H]3OS(=O)(=O)O)[C@@H]2O)c1`, the –TΔS was 2.84 ± 0.12 kcal/mol (Galectin-3 (LGALS3, Homo sapiens, UniProt P17931); ITC; Kd fixed from FP).
The Hill coefficient of `Nc1ncnc2c1ncn2C1OC(COP(=O)(O)OP(=O)(O)OCC2OC(O)C(O)C2O)C(O)C1O` (stereo not shown) is reported as 1.5 ± 0.1 (TRPM2 (Nematostella vectensis, UniProt A7T1N0); channel current, activator, inside-out patch clamp; global fit with epsilon analogue).
With `Cn1c(=O)c2[nH]c(SCCc3ccccc3)nc2n(C)c1=O` the remaining activity was 101% (Androgen receptor (AR, Homo sapiens, UniProt P10275); reporter gene, antagonist, PSA-luciferase; HeLa-A6; 10 µM, 24 h, added: 5 nM dihydrotestosterone; relative to: maximal activity).
For `[11CH3]Nc1ccc(-c2nc3ccc(O)cc3o2)cn1`, “effect size of DVR” read 4.49 (APP (Homo sapiens, UniProt P05067); binding, PET; Alzheimer's disease patients, posterior cingulate cortex; unit not given; relative to: control subjects).
`CCCN(CC(=O)N(CCC)CC(=O)N(CCC)CC(=O)N(CCC)CC(=O)N(CCC)CC(=O)N(CC(N)=O)Cc1cn(CCCNC(=O)CCCOc2cccc(-c3nc4ccc(-c5nc6ccc(N7CCN(C)CC7)cc6[nH]5)cc4[nH]3)c2)nn1)C(=O)CNCc1cn(CCCNC(=O)CCCOc2cccc(-c3nc4ccc(-c5nc6ccc(N7CCN(C)CC7)cc6[nH]5)cc4[nH]3)c2)nn1` gave a multivalent effect of 2.5 (MBNL1–r(CUG)109 complex; MBNL1 displacement; 0.65 pmol r(CUG)109; unit not given, added: yeast tRNA 3.7 µM; relative to: monomer 2 IC50 per module).
For `COC(=O)C1=Cc2ccccc2S1(=O)=O`, “E3 ligase activity” read “no effect” (E3 ubiquitin-protein ligase synoviolin, residues 235-617 (SYVN1, Homo sapiens, UniProt Q86TM6); in vitro ubiquitination; 0, 5, 10 µM, Hrd1 C-terminal domain).
`[3H]C([3H])([3H])c1cnccc1CN1C[C@@H](c2cc(F)c(F)c(F)c2)CC1=O` gave a specific binding of 376 fmol/mg (SV2A (Homo sapiens, UniProt Q7L0J3); radioligand binding, autoradiography; human, post-mortem temporal lobe; 5 nM).

Repeated from above:
`COc1ccc(-c2cc(C(F)(F)F)nc(SCC(=O)N(C)c3ccccc3)n2)cc1` has an Emax of 28 ± 4.3% (GLP1R (Homo sapiens, UniProt P43220); cAMP accumulation, positive allosteric modulator; HEK-293T overexpressing GLP1R; added: EC20 GLP-1).
The enrichment factor of `NC(=O)C1CCNC(=O)C(Cc2ccc([N+](=O)[O-])cc2)NC(=O)C(Cc2ccco2)NC(=O)C(CC2CC2)NC(=O)C=CC(=O)N1` (stereo not shown) is reported as 1.7 (ERBB4 (Homo sapiens, UniProt Q15303); DNA-templated library selection; one selection round).
